Experimental data gathered from unrelated publications.
Values joined by “and” are separate records of one study, mostly repeats; a detail may differ. Numbers after ± are the reported error.

| Compound | tested on | test | system | setting | how to read | endpoint | value |
| --- | --- | --- | --- | --- | --- | --- | --- |
| Cc1ncsc1-c1ccc(C(C)NC(=O)C2CC(O)CN2C(=O)C(NC(=O)CCCCCCCCCCN2CCCC(Nc3ncc(Cl)c(Nc4ccccc4S(=O)(=O)C(C)C)n3)C2)C(C)(C)C)cc1 (stereo not shown) | 22Rv1 | RNA-seq, item: NPIPB3 mRNA | – | concentration not given | relative to: DMSO | log2 fold change | -1.22 |
| CC12CCCC(NS(=O)(=O)C3CCCCC3)(C1)C1CC(C)(C)C1CC2 (stereo not shown) | HT-29 | cell growth or viability, CCK-8 | – | 10 µM | – | inhibition | < 50% |
| O=C(C[Se]C(=O)c1ccccc1Nc1cccc(C(F)(F)F)c1)Nc1cccc(C(F)(F)F)c1 | NCI60 leukemia subpanel | cell growth | – | 10 µM, 48 h, one-dose | – | mean growth percent | -75.5% |
| CC(=O)N[C@@H](CC(=O)O)C(=O)N[C@@H](Cc1ccc2ccccc2c1)C(=O)N[C@@H](C)C(=O)N[C@@H](CC(=O)O)C(=O)COC(=O)c1c(C)cccc1C | THP-1 cells, LPS-primed | pyroptosis, LDH release | – | 25 µM, LPS 1 µg/mL, 4 h, with: nigericin 5 µM, 2 h | – | cell lysis | 90.6% and 70.7% |
| C[C@@H]1CC[C@@H]([C@@](O)(CNCc2cccc(F)c2)COCc2ccccc2)[C@H](OCc2ccccc2)C1 | A2780 | cell growth or viability, MTT | – | 10 µM, 72 h | – | inhibition | 95.2% |
| Cn1ncc2cc(-c3cncc(Cl)c3N3CCC4(CCNC4=O)CC3)ccc21 | LS174T | gene expression, microarray, item: PLD1 mRNA | – | concentration not given, 24 h | relative to: untreated cells | log2 fold change | -2.32 |
| CC(=O)Oc1ccccc1C(=O)[Se]CC(=O)Nc1cccc(C(F)(F)F)c1 | NCI60 NSCLC subpanel mean | cell growth | – | – | – | TGI | 4390 nM |
| C=CCc1c(O)cc2c(c1O)C(=O)CC(c1ccc(O)cc1)O2 (stereo not shown) | HeLa | cell growth or viability, MTT | – | 12.5 µM, 48 h | – | inhibition | 3.43% |
| CCCCCCCCCCCCCCCC(=O)OCC(CSC[C@H](N)C(=O)N[C@@H](CO)C(=O)N[C@@H](CCCCN)C(=O)N[C@@H](CCCCN)C(=O)N[C@@H](CCCCN)C(=O)N[C@@H](CCCCN)C(=O)NCCCCCC(=O)N[C@@H](CCCCN)C(=O)N[C@@H](CC(C)C)C(=O)N[C@H](C(=O)N[C@@H](Cc1ccccc1)C(=O)N[C@@H](Cc1ccccc1)C(=O)N[C@@H](Cc1ccc2ccccc2c1)C(=O)O)C(C)C)OC(=O)CCCCCCCCCCCCCCC (stereo partly shown) | BV-2 | Western blot, item: NLRP3 over tubulin | – | concentration not given, unit not given | relative to: control | NLRP3 protein level | 2.06 |
| CCCS(=O)(=O)NC12CCCC(C)(CCC3C1CC3(C)C)C2 (stereo not shown) | HT-29 | cell growth or viability, CCK-8 | – | 50 µM | – | inhibition | 48.6% |
| CN1CCCNC(=O)c2cccc(c2)C(=O)NCCCN(C)CCCNc2cccc3c2C(=O)c2cccc(c2C3=O)NCCC1 | SAS | RNA-Seq, item: PNN mRNA | – | 1 µM, 6 h | relative to: untreated cells | log2 fold change | -0.608 |
| COc1ccc(CNC[C@](O)(COCc2ccccc2)[C@@H]2CC[C@@H](C)C[C@H]2OCc2ccccc2)cc1 | A2780 | cell growth or viability, MTT | – | 30 µM, 72 h | – | inhibition | 93.4% |
| COC1CN([C@H]2CC[C@H]([C@@]3(C)Oc4c(Cl)cc(C(=O)NCc5c(SC)cc(C)[nH]c5=O)c(C)c4O3)CC2)C1 | – | RNA-seq, item: RTN2 | human, whole blood | dose not given, 24 h | relative to: pretreatment baseline | log2 fold change | 1 |
| CNS(=O)(=O)Nc1nccc(Cc2c(C)c3ccc(Oc4ncccc4F)cc3oc2=O)c1F | CL-11 | cell viability | – | 7 days | – | IC50 | 9.77 nM |
| O=S(=O)(N[C@H]1CCO[C@@H](C2c3ccccc3CCc3ccccc32)C1)c1ccc(OC(F)(F)F)cc1 | D341 | immunoblot | – | concentration not given, 72 h | – | total PARP level | decreased |
| CCCCCCc1cccc([C@H](O)C[C@H](CO)NC(=O)CCCCCOc2ccc3ccccc3c2)c1 | HeLa | CERT activity, HPLC-MS/MS lipidomics, item: hexosylceramide 24:1 | – | 1 µM, 24 h, not cell-number normalised | – | hexosylceramide level | 16600 pmol/sample and 8790 pmol/sample and 15300 pmol/sample |
| COc1cc(C(=O)N2CC[C@@H](O)[C@@H](N)C2)cc2nc(-c3cc4cccnc4n3CC3CC3)n(C)c12 | human neutrophils | Western blot densitometry, item: CitH3 band 6 over GAPDH | – | 0.1 µM, unit not given, with: ionomycin 5 µM | relative to: GAPDH loading control | citrullinated histone H3 level | 197000 and 171000 |
| CCC(=CCc1c(O)cc2c(c1O)C(=O)CC(c1ccc(OC)c(O)c1)O2)CC (stereo not shown) | HeLa | cell growth or viability, MTT | – | 1.563 µM, 48 h | – | inhibition | 4.14% |
| N#C[C@@H]1CCCN1C(=O)CNC(=O)c1ccnc2ccc(OCCCN3CCN(C(=O)CCc4ccc5c(c4)CN4CCN(Cc6cc(CCC(=O)O)ccc6O)CC(=O)[O][Al-]([18F])([O]C(=O)C4)[O]5)CC3)cc12 (stereo partly shown) | HT1080 cells expressing human FAP | – | – | 90 min, 37 °C | – | internalized fraction | 75.6 ± 1.1% |
| CC12CCCC(NS(=O)(=O)c3ccc(C(F)(F)F)cc3)(C1)C1CC(C)(C)C1CC2 (stereo not shown) | HT-29 | cell growth or viability, CCK-8 | – | 10 µM | – | inhibition | < 50% |
| O=c1cc(NCCc2ccccc2)c2ccccc2o1 | COS-7 (untransfected) | – | – | 500 µM, unit not given | relative to: 3 µM ionomycin | calcium mobilisation signal | 11.2 ± 2.41 |
| COc1ccccc1-c1ccncc1C(=O)Nc1nnc(OCc2ccc(Cl)cc2)s1 | DLD-1 BRCA2-/- | – | – | 8 µM, single replicate | – | colony count | 4 and 7 and 5 and 6 |
| Cc1n[nH]c(C)c1CCCOc1cc(C(=O)NCCCCC(NC(=O)CN2CCN(CC(=O)[O-])CCN(CC(=O)[O-])CCN(CC(=O)[O-])CC2)C(=O)NCC2CCC(C(=O)NC(Cc3ccc4ccccc4c3)C(=O)NCCCCC(NC(=O)NC(CCC(=O)O)C(=O)O)C(=O)O)CC2)ccc1F.[68Ga+3] (stereo not shown) | 22Rv1 | – | – | 2 h, efflux | relative to: dose | cell retention | 3.35 ± 0.52% |
| CC12CCCC(NC(=O)c3ccc(F)cc3)(C1)C1CC(C)(C)C1CC2 (stereo not shown) | HT-29 | cell growth or viability, CCK-8 | – | 10 µM | – | inhibition | < 50% |
| Nc1ncc(-c2cc(-c3cnn(CC(F)(F)F)c3)ncc2F)nc1C(=O)NC1CNCC(F)C1 (stereo not shown) | ADCK4 | KINOMEscan | – | 1 µM | relative to: DMSO control | remaining binding | 94% |

| Compound | tested on | test | system | setting | how to read | endpoint | value |
| --- | --- | --- | --- | --- | --- | --- | --- |
| C[C@@H]1CC[C@@H]([C@](O)(CNCc2ccccc2F)COCc2ccccc2)[C@H](OCc2ccccc2)C1 | A2780 | cell growth or viability, MTT | – | 30 µM, 72 h | – | inhibition | 100% |
| CC1(C)OB(c2ccc(COC(=O)N(Cc3cccc(CN4CCCCC4)c3)[c-]3cccc3)cc2)OC1(C)C.[Fe+2].c1cc[cH-]c1 | A2780 | qPCR, item: CHOP | – | 3 µM, 24 h, unit not given | relative to: untreated | mRNA level | 284 ± 34.1 |
| COc1cc(N2CCN(C(=O)C3CCCN3)CC2)ccc1Nc1ncc(Cl)c(Nc2ccccc2P(C)(C)=O)n1 (stereo not shown) | NCI-H3122 | CCK-8 | – | 5 nM, 48 h | – | viability | 80% |
| O=C(c1ccc(C2CCCCC2)cc1)N1CCC(F)CC1 | – | liver microsome stability | mouse liver microsomes | 1 µM | – | hepatic clearance | 86 mL/min/kg |
| CN1CCN(Cc2ccc(C(=O)Nc3ccc4c(/C=C/c5ccccn5)n[nH]c4c3)cc2)CC1 | BaF3 | cell growth or viability, CCK-8 | – | – | – | GI50 | 590 nM |
| C=CC(=O)N1CCCC(n2c(=O)c3ncccc3n(Cc3ccc(Oc4ccccc4)cc3)c2=O)C1 (stereo not shown) | OCI-LY19 | annexin V/PI flow cytometry | – | 500 nM, 72 h, Q4 quadrant | – | viable cells | 57.8% |
| CCC(=CCc1c(O)cc2c(c1O)C(=O)CC(c1ccc(O)cc1)O2)CC (stereo not shown) | HeLa | flow cytometry | – | 12 µM, 48 h | – | G2 phase cells | 11 ± 0.36% |
| O=S(=O)(Nc1ccc(OC(F)(F)F)cc1)N1CCCC(C2c3ccc(F)cc3CCc3cc(F)ccc32)C1 (stereo not shown) | D341 | CellTiter | – | concentration not given, 72 h | – | cell proliferation | decreased |
| CCC(=CCc1c(O)cc2c(c1O)C(=O)CC(c1ccc(O)cc1OC)O2)CC (stereo not shown) | HeLa | cell growth or viability, MTT | – | 50 µM, 48 h | – | inhibition | 97.1% |
| CN1CC[C@@H](COc2cnc(C#N)cc2-c2ccn3nc(NC(=O)C4CC4)cc3c2)C1 | human PBMC, CD4 T cells | single-cell RNA-seq | – | 1 µM, with: LPS | relative to: LPS alone | number of downregulated genes | 30 genes |
| CCc1c(-c2ccc3[nH]ncc3c2)cnc(N)c1-c1ccc(O)cc1 | CHP-212 resistant sublines, USP7 V517F heterozygous | – | – | 0.7812 µM | – | viability | 114% |
| CC(C)c1ccc(N(C)c2ccc3c(c2)OCC[C@H]3CNc2cnccc2C(=O)O)cc1 | DMS-79 | cell viability, CellTiter-Glo | – | 7 days | – | IC50 | 3.47 nM |
| CC(=O)N1C[C@H](O)C[C@H]1C(=O)N[C@H](C(=O)N[C@@H](CO)C(=O)N[C@@H](CC(=O)O)C(=O)COC(=O)c1c(C)cccc1C)C(C)(C)C | THP-1 cells, LPS-primed | pyroptosis, LDH release | – | 25 µM, LPS 1 µg/mL, 4 h, with: nigericin 5 µM, 2 h | – | cell lysis | 79.9% and 84.9% |
| C=CC(=O)N1[C@@H](c2ccc3c(c2)OCO3)c2[nH]c3ccccc3c2C[C@H]1C(=O)NC1CC1 | rat DRG neurons | – | – | 10 µM, 48 h, with: vincristine 40 nM | – | mean neuron degeneration | 17.1% |
| O=C(CC(F)(F)F)Nc1ccc(C2CCCCC2)cc1 | – | liver microsome stability | cynomolgus liver microsomes | 1 µM | – | hepatic clearance | 41 mL/min/kg |
| Cc1cc(Cl)cc(-c2ccnc3cc(CN4C(=O)C5C(C4=O)C5(C)C)sc23)c1C[C@@H]1CNCCO1 (stereo partly shown) | CHP-212 parental | annexin V/PI flow cytometry | – | 0.3 µM, 48 h | – | early apoptotic cells | 19.4% and 21.1% and 27% |
| CC(=O)N[C@@H](Cc1ccc(O)cc1)C(=O)N1CSC[C@H]1C(=O)N[C@@H](C)C(=O)N[C@@H](CC(=O)O)C(=O)COC(=O)c1c(C)cccc1C | THP-1 cells, LPS-primed | pyroptosis, LDH release | – | 25 µM, LPS 1 µg/mL, 4 h, with: nigericin 5 µM, 2 h | – | cell lysis | 39.3% and 41% |
| CCC(=CCc1c(O)cc2c(c1O)C(=O)CC(c1ccc(O)c(OC)c1)O2)CC (stereo not shown) | HeLa | cell growth or viability, MTT | – | 0.781 µM, 48 h | – | inhibition | 3.75% |
| O=S(=O)(N[C@H]1CCO[C@@H](C2c3ccc(F)cc3CCc3cc(F)ccc32)C1)c1ccc(OC(F)(F)F)cc1 | D425 | immunoblot, item: Bad | – | concentration not given, 24 h | – | phosphorylation level | decreased |
| CCN(CC)CC(=O)Nc1cccc(-n2cc(-c3ccc4ccc(-c5cn(-c6cccc(NC(=O)CN(CC)CC)c6)nn5)cc4c3)nn2)c1 | RCC4 | PCR array, item: F3 | – | 5 x IC50, 6 h, normoxia | relative to: untreated | fold regulation | -1.8 |
| CC[C@H](NC(=O)[C@H](CC(C)C)NC(=O)[C@H](CC(=O)O)NC(C)=O)C(=O)N[C@@H](CC(=O)O)C(=O)COC(=O)c1c(C)cccc1C | THP-1 cells, LPS-primed | pyroptosis, LDH release | – | 25 µM, LPS 1 µg/mL, 4 h, with: nigericin 5 µM, 2 h | – | cell lysis | 89% |
| CCN(C(=O)c1cc(F)ccc1Oc1nncnc1N1CCC2(C1)CN([C@H](CCCN(C)CCOC)C(C)C)C2)C(C)C | JEG-3 | cell growth or viability | – | 7 days | – | GI50 | > 10000 nM |
| CC12CCCC(NS(=O)(=O)c3ccc(N)cc3)(C1)C1CC(C)(C)C1CC2 (stereo not shown) | HT-29 | cell growth or viability, CCK-8 | – | 10 µM | – | inhibition | < 50% |
| COC1CCN(C(=O)/C=C/c2nn(Cc3cccc(C(F)(F)F)c3)c3nc(NCc4ccccc4)ncc23)CC1 | FLO-1 | cell growth or viability, resazurin | – | 5 days | – | EC50 | > 30000 nM |
